# Experimental data collected from several papers.
# Chains of the proteins cited; added tags and fusions are not shown.
# UniProt P08173, whole entry: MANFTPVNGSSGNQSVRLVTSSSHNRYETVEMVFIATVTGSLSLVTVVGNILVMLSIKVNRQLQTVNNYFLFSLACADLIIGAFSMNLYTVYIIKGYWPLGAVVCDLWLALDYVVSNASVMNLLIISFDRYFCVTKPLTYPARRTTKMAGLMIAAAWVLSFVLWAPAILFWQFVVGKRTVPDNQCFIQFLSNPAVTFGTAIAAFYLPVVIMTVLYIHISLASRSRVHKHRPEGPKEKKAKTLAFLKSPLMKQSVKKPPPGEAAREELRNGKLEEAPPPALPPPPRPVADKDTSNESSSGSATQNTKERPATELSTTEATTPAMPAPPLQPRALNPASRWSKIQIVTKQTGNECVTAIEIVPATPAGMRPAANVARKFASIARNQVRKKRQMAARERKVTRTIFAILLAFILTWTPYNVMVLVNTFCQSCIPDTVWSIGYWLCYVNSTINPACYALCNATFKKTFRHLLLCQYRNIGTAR
# UniProt Q05397, whole entry: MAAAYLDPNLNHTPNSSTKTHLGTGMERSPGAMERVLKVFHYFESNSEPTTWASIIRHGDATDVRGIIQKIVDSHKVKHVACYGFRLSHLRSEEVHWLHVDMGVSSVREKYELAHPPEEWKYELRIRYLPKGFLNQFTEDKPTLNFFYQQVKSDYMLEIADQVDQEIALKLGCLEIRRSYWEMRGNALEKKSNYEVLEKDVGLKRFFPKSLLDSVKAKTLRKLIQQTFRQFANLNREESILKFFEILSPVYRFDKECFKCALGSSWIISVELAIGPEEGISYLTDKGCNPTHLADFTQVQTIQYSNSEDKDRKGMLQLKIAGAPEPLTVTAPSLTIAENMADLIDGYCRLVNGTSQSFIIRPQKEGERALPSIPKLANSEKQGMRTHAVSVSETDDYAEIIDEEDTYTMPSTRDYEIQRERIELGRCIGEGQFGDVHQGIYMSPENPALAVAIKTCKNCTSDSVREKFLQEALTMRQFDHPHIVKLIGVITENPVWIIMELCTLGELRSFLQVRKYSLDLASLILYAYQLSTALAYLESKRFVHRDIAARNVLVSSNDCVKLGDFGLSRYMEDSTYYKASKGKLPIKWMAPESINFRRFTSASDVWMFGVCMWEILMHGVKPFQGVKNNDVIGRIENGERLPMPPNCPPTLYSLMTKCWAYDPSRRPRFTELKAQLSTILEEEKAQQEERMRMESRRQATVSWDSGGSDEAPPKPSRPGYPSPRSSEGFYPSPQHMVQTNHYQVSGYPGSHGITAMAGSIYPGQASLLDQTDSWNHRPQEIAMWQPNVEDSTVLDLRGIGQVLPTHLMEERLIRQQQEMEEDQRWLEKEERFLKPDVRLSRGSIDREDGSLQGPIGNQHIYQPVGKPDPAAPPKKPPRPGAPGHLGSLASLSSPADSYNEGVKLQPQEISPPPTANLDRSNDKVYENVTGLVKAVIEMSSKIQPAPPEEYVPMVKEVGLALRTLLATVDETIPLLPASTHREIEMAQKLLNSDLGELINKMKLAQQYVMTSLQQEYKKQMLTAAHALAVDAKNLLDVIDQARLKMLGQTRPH
SMILES,tested on,test,system,setting,scale,quantity,value
CCc1nc(N)nc(N)c1C#C[C@@H](C)c1cc(OC)cc(-c2ccc(C(=O)O)cc2)c1,Mycobacterium tuberculosis,,PAS-resistant folC E153G,,,MIC,0.125 µg/mL
O=C(O)COc1ccc2nc3ccc(=O)cc-3oc2c1,Mycobacterium tuberculosis,,mc2 6206 PA-824-resistant ddn mutant,7 days,,MIC90,> 256 µM
CCN1CCN(Cc2ccc(NC(=O)c3ccc(C)c(/C=C/c4cnc5[nH]ccc5c4OC)c3)cc2C(F)(F)F)CC1,ETV6-FLT3 fusion,"kinase-CDC37 interaction, inhibitor",human cells,5 µM,baseline: vehicle,log2 fold change,-2.16
Nc1ccc(C(=O)O)c(O)c1,Mycobacterium bovis,,"BCG Tac^r7.2, thyA W133S missense",TA-C-resistant thyA mutant,,MIC50,> 100 µM
CCC(=N\O)/C(C)=C/c1ccc(F)cc1,CS tear gas,,"male C57BL/6 mice, CS-induced skin injury, ear punch biopsy","intraperitoneal, dose not given, 6.5 h",baseline: vehicle,MMP9 level reduction,64%
O=c1ccc2nc3ccc(OCC4(CO)COC4)cc3oc-2c1,Mycobacterium tuberculosis,,mc2 6206 clofazimine-resistant fbiC mutant,7 days,,MIC90,> 256 µM
Cc1ccc(-c2nsc(=O)o2)s1,Mycobacterium bovis BCG,,,25 µM,,reduction in viable count,1.7 log CFU
O=c1ccc2nc3ccc(OCc4ccccc4)cc3oc-2c1,Mycobacterium tuberculosis,,mc2 6206 clofazimine-resistant fbiC mutant,7 days,,MIC90,> 256 µM
CCCN1CCN(c2ccc3c(c2)C2CC3CCN2C(=O)OCc2ccccc2)CC1 (stereo not shown),"CHRM4 (Homo sapiens, UniProt P08173)","binding, radioligand binding",,,,Ki,1630 nM
CC1(C)CCC(Cc2cc(O)c(-c3ccccc3)c(=O)[nH]2)CC1,Mycobacterium tuberculosis,,MDR clinical isolates,,,MIC,0.04 to 0.16 µM
CCC(C)C1NC(=O)/C(=C(/C)O)C1=O (stereo not shown),Arabidopsis thaliana,,"Col-0, seedlings on agar","20 µM, 6 d",,root growth,0.1 cm
NNC(=O)c1ccncc1,Mycobacterium bovis,,"BCG Tac^r9.1, thyA S125P missense",TA-C-resistant thyA mutant,,MIC50,0.4 µM
N=C(N)NCCC[C@H](NC(=O)[C@H](CCCNC(=N)N)NC(=O)[C@H](Cc1c[nH]c2ccccc12)NC(=O)[C@H](Cc1c[nH]c2ccccc12)NC(=O)[C@H](CCCCN)NC(=O)[C@H](Cc1c[nH]c2ccccc12)NC(=O)[C@H](Cc1c[nH]c2ccccc12)NC(=O)[C@H](CCCNC(=N)N)NC(=O)[C@@H](N)CCCCN)C(N)=O,Mycobacterium bovis,,"TMC 1012, 7H9 broth","48 h, 37 °C, added: sodium pyruvate 40 mM",,MIC,20 µM
O=[N+]([O-])c1cn2c(n1)OC[C@@H](OCc1ccc(OC(F)(F)F)cc1)C2,Mycobacterium bovis,,"BCG Tac^r2.3, fbiA L109P missense",TA-C-resistant F420 mutant,,MIC50,> 100 µM
CC#C/C(=N\OC[C@H]1COCCN1)c1ccc2ncnc(Nc3ccc(OCc4cccc(F)c4)c(Cl)c3)c2c1,"PTK2 (Homo sapiens, UniProt Q05397)",kinase activity,,10 µM,,inhibition,26.7%
CCCOc1ccc2nc3ccc(=O)cc-3oc2c1,Mycobacterium tuberculosis,,mc2 6206 bedaquiline-resistant MmpL5 regulator mutant,7 days,,MIC90,19 µM
O=[N+]([O-])c1ccc(N2CCN(c3ccc([N+](=O)[O-])cc3[N+](=O)[O-])CC2)c([N+](=O)[O-])c1,Escherichia coli,,multidrug-resistant,,,MIC,> 500 µg/mL
CO[C@H]1/C=C/O[C@@]2(C)Oc3c(C)c(O)c4c(O)c(c(/C=N/N5CCN(C)CC5)c(O)c4c3C2=O)NC(=O)/C(C)=C\C=C\[C@H](C)[C@H](O)[C@@H](C)[C@@H](O)[C@@H](C)[C@H](OC(C)=O)[C@@H]1C,Mycobacterium bovis,,"BCG Tac^r10.2, thyA mutant",TA-C-resistant thyA mutant,,MIC50,0.0016 µM
COC(=O)COc1ccc2nc3ccc(=O)cc-3oc2c1,Mycobacterium tuberculosis,,mc2 6206 clofazimine-resistant fbiC mutant,7 days,,MIC90,55 µM

# Some of these lines once more:
SMILES,tested on,test,system,setting,scale,quantity,value
CCC(=N\O)/C(C)=C/c1ccc(F)cc1,CS tear gas,,"male C57BL/6 mice, CS-induced skin injury, ear punch biopsy","intraperitoneal, dose not given, 6.5 h",baseline: vehicle,MMP9 level reduction,64%
O=c1ccc2nc3ccc(OCC4(CO)COC4)cc3oc-2c1,Mycobacterium tuberculosis,,mc2 6206 clofazimine-resistant fbiC mutant,7 days,,MIC90,> 256 µM
Cc1ccc(-c2nsc(=O)o2)s1,Mycobacterium bovis BCG,,,25 µM,,reduction in viable count,1.7 log CFU
